Results gathered from unrelated publications.
Each numbered part is a random draw from the data of one study; scales do not carry over between parts.

Sample 1
Target: RNA binding protein fox-1 homolog 2, RRM domain, GST-SBP tag (RBFOX2, Homo sapiens, UniProt O43251-10, residues 100-194)
Technique: RNA Bind-n-Seq
Form: RNA
Matrix: in vitro
Tested at: 365 nM
Notes: natural RNA segment, single round, ends assumed
Relative to: no-protein control
Direction: higher = stronger binding
Shared flanks, not repeated: GGGAGUUCUACAGUCCGACGAUC … UGGAAUUCUCGGGUGCCAA
Residues (chain): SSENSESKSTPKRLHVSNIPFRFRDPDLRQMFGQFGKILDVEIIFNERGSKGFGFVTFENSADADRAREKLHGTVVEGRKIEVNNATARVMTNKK
Strand | RBNS enrichment (R)
UUACAAAUUAGGAAAGCAACCUUUCAGUUUAUAUAUAUAUUUUUUUUCCUUUUUGAUACCUCAGUGCUGCAAGUAUCAUCAGAGAGGCUAUGGAAGAGUUUUGUGUUUUG | 1.28
UGUGAUCAAUCCCUAGUAAAAGCCCUGGACACCUAGGCAUGGGUGAGCUACUCUGGUUGGUAAUACUCUGUGCACACAUCAUUGUAGCCACACAUCAUUGCUGGGAGAAU | 0.252
UGACAGAAUAAUUUUGGAAGAGGAAGCCUCAUCAAAAGCUCACACAAAAUAGAGCUUCCCAUGGUGUGCCCUAUCCUAGGUUUAAGAAAACACGUAUGAAGUUUAUGCUG | 0.291
AAAAUAACUACCCUCAGCAAACACUAGCUGUUCUGCUCAUAUAUGAAUUUUUAAUGCAGCAAUGUUGACUUUGUUUCAUACUGCCAAUAAACUCUUAAUACUAAAUACUG | 0.409
AAGAGAUAAAGAUGCCGGUUCCAACCAGAAGUUUGGGGAGCCUCAGGACAUGGCAUGCUUUGUGGAUCCCCAUGAUAGUCUACAAAAGCACCCCGCCCCUCUGGGCACUG | 0.76
UUUAUCUGUAAGAACACAAAUUUGGCAUUACAGUUAAGGGAGUGAUUUGAAUUGAUUGACAAGUCCUGGCAUGUGACAAUUUUACUAAAUUACCAAGUUUGGUUUUUAAU | 1.84
UCCUGGGUAGAAUCUUAAUAAUAGAAGGACUUAGAGAGAAAAUCAAAUCCACCCUCCUUGUGGGGAAGAUGGUAAUAUGGGACCAAGAGCAGCAAACGUGCUCACCUGGU | 0.704
CAGAAAAGGGACACCCUUUUAUGGUGUCAACUUUUGGAUCUGGGUUUCCCCCAGAUGUUGGGUUGCAUGCCAAUAAACAUGUGGCUUCUUCUCAAAGCCUGUCUUCAAAA | 0.639

Sample 2
Target: RING finger protein unkempt homolog, zinc fingers 1-6, GST-SBP tag (UNK, Homo sapiens, UniProt Q9C0B0, residues 30-357)
Sequence of UniProt Q9C0B0 (30-357, looked up): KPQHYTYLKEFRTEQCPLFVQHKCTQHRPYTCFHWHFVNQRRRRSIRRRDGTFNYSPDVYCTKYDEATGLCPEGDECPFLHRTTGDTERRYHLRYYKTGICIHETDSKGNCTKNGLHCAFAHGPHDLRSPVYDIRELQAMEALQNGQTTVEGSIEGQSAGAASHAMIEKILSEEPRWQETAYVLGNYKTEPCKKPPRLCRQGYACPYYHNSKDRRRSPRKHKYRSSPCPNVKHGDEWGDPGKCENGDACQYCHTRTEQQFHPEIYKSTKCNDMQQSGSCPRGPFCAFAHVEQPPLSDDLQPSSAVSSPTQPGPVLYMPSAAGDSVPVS
Technique: RNA Bind-n-Seq
Form: RNA
Matrix: in vitro
Tested at: not given
Notes: RNA with constant flanks, ends assumed
Relative to: input RNA pool
Direction: higher = stronger binding
Shared flanks, not repeated: GGGAGUUCUACAGUCCGACGAUC … CAACAGAGGAUUGAGCAUCA
Strand | bound/input enrichment [ratio]
CAGCCAGGGAUUUUUGGGUUUUUUGUUUUGGGUUGAGUCUGGGUGUUAUUUUUGUUUGUUUCCGGCAUAUAAUUCCCGAUGUAAUUUGAUUUAAAAGUAUAACUGACUUGCUUUUAAAUC | 0.37
UAUAUUUUGGAUUCUGUUUGUGUUGAAUUUUUUAAUCAUUGUGCACAGAAGCAUCAUUGGCCGCUUUUAUAUGCAAAUGGUCAUUUCAGAUGUAUGGUGUUUUUACACUACAAAGAAGUC | 0.126
GAAAGGGACGGUGGGACCAGUUACUCUCCACAAGAAAACUCACACAACCACAGUGCACUUCACCGUUCAAAUUCACAUUCUUCUAAUCCAAGCAAUAAUCCAAGCAAAACUUCAGAUGCA | 0.268
CUGCGCUCGCUGGCCUUCAGGAAGGAGUUCCAGGACGCUAGCCUCCGCAGUAGCACCUUCCGCUCCUUUGACAAUGACAUAGAGAACCACCUCAUCGGUGGGCACAAUGUGGUUCAGCCC | 0.154
GAUUGAUCUCUGGGCUGGUGAACAUAAUCUCUGUCCCAGUCAGAAAAGGAGAGAGGAAAUCCGCAGAGCGAUUGGUGGAGAAUGAUAUCUGUCAAAAGAAACACUUGGAGAGCACUGAGU | 0.235
UUAGCUUAUGGCAACCAAGAAAGCAAGCUCAUCAUACUGGCUAGUGGUGGACCCCAAGCUUCCGUAAAUAUAAUGAGGACCUAUACUUACGAAAAACUACUGUGGACCACAAGCAGAGUG | 0.258
CCUCUACCAGAUGACUAUAAUUGCAACGUAGAGCUUGCUCUGACUUCUGAUGGCAGGACAACCGUAUGCUACCACCCUUCUGUGGACAUUCCAUAUGAACACACAAAACCUAUCCCUCGG | 0.167
CAAGAUAAAUUUCAGACCAUGUCUGACCAGAUCAUUGGGAGAAUUGAUGAUAUGAGCCGUCGCAUUGAUGAUCUGGAAAAGAAUAUCGCGGACCUCAUGACACAGGCUGGGGUGGAAGAA | 0.464

Sample 3
Target: Fragile X messenger ribonucleoprotein 1, C-terminal low-complexity region (Fmr1, Mus musculus, UniProt P35922)
Technique: RNA Bind-n-Seq
Form: RNA
Matrix: in vitro
Tested at: 200 nM
Notes: whole 134-nt RNA, ends assumed
Together with: 150 mM LiCl
Relative to: input library
Direction: higher = stronger binding
All molecules: 7-deaza-guanosine replaces G
Shared flanks, not repeated: GGGAGUUCUACAGUCCGACGAUC … UGGAAUUCUCGGGUGUCAAGG
Strand | log2 enrichment
ACCAUGCAGGGGGGCAUCUUUGGGAAGUGGGGCAAGGGGGGGAUAGGGAGGGGGGUAACACUUUGGGAACAGGUGGUCCCAGGUCGUUUC | 1.67
CACAGACAACACGCACCCACACAGACACAGAGGGAAGGGGUUGGGAUGGAAACAGGGUGCACAGCAGGGCGGGGUAGGACCCCAGCCCCU | 0.37
UGGCCCUGGUGGCAUGCGGGGAGGAAGAGGUGGCUUCAUGGAUCGUGGUGGUCCCGGUGGAAUGUUCAGAGGUGGCCGUGGUGGAGACAG | 0.167
UCUUUAUUUGAGCCAGUCUUGCAAGGUUAACUUCUCACUGGGCCUAGUGUGGUGCCCAGGUUUUUGCCUUGCUUCACUUCUGUCUCUACA | -1.38
AGUCCUGUGCUACACAUCGUAUGUACCGAAUCGGGGCCCCGGGGCCCCGGGCCCCGGAAAGUAUUAUGUUACGCCGUUCGGAUCUGCACU | 0.455
CAAGUCCUGUGCUACACAUCGUAUGUACCGAAUCGGGGUUUGGGGUUUGGUUUGGGAAAGUAUUAUGUUACGCCGUUCGGAUCUGCACUU | -1.51
CUCAAGUCCUGUGCUACACAUCGUAUGUACCGAAUCGGGGCCGGGCCGGCCGGAAAGUAUUAUGUUACGCCGUUCGGAUCUGCACUUCCA | 1.07
AGUCCUGUGCUACACAUCGUAUGUACCGAAUCGGGUGGGAAAAAGGGAAAAAAAGGGAAAGUAUUAUGUUACGCCGUUCGGAUCUGCACU | -0.545

Sample 4
Target: Sal-like protein 4, full length isoform B (SALL4, Homo sapiens, UniProt Q9UJQ4-2, residues 1-616)
Technique: universal PBM
Form: double-stranded DNA, one strand shown
Matrix: in vitro
Tested at: not given
Notes: 8-mer, flanks averaged, mean of replicates
Direction: higher = stronger binding
Residues (chain): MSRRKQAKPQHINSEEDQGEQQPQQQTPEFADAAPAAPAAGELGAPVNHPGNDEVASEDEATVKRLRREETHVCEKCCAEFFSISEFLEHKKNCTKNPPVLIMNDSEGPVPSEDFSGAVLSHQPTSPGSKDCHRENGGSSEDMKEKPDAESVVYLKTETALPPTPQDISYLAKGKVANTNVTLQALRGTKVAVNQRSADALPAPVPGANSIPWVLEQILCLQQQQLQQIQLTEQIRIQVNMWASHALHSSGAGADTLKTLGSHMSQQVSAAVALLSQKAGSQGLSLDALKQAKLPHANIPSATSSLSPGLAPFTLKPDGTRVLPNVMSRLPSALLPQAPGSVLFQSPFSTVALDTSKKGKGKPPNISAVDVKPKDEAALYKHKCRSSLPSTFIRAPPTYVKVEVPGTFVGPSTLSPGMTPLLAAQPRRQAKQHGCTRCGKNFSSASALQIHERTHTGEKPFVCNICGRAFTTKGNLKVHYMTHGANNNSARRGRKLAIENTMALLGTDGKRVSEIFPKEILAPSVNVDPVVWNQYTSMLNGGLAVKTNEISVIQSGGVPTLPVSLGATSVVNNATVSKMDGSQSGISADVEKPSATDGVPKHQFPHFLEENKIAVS
Strand | E-score
GTTCGTTA | 0.122
AAATTTGG | 0.106
AGTCTGGC | -0.266
ACATCCCT | -0.0526
GCTCTACA | -0.0743
GGCCGAAA | -0.0836
TCCTTCGA | -0.122
AAAAGCTA | 0.121
TTACAGAA | 0.23
AGGCATGC | -0.019
CAGATTGC | 0.0787
TGACATAA | 0.321
ACGGGAAG | -0.026
GGTGCGGA | -0.164
GCAGATAC | 0.0205
AGATTGCT | 0.0614
CTAGAAGC | -0.218
CCACTAGC | -0.0693
ATCGCCTA | -0.124
ATCCCACA | 0.00367
GTACAGTA | 0.177
ACCTCGCT | -0.136
GAGGAACA | 0.029
GGATCTAA | -0.00462

Sample 5
Target: Prothrombin, mature alpha-thrombin (F2, Homo sapiens, UniProt P00734)
Technique: aptamer microarray, sandwich
Form: DNA with 2'F-ANA
Matrix: in vitro
Tested at: 200 nM
Notes: whole 15-mer aptamer, many near background
Together with: Cy3 exosite-II aptamer, 400 nM
Direction: higher = stronger binding
Strand: GGTTGGTGTGGTTGG
Modification | mean fluorescence intensity [a.u.]
2'F-ANA at 1 3 5 7 12 14 | 45.5
2'F-ANA at 2 3 4 7 8 9 10 12 13 14 15 | 180
2'F-ANA at 1 3 5 6 8 11 12 15 | 102
2'F-ANA at 1 2 4 5 9 10 13 | 44.4
2'F-ANA at 2 3 4 5 11 12 13 15 | 102
2'F-ANA at 6 9 11 12 13 | 547
2'F-ANA at 1 6 9 10 12 13 14 | 46.6
2'F-ANA at 2 5 6 10 11 15 | 51.1
2'F-ANA at 2 3 4 5 6 12 13 14 15 | 51.8
2'F-ANA at 2 4 5 6 9 10 11 13 14 | 47.9
2'F-ANA at 3 5 6 10 11 12 13 14 15 | 75.3
2'F-ANA at 1 2 7 11 12 13 14 15 | 63.4
2'F-ANA at 1 2 3 4 5 6 7 8 10 14 | 45.9
2'F-ANA at 2 3 4 7 9 10 11 13 14 | 168
2'F-ANA at 1 2 4 5 6 9 10 11 12 14 | 53.5
2'F-ANA at 2 3 6 7 8 9 11 12 14 | 335
2'F-ANA at 4 5 6 10 11 15 | 44.8
2'F-ANA at 4 8 9 10 13 14 | 57.5
2'F-ANA at 5 7 9 12 | 198
2'F-ANA at 3 4 5 6 7 9 11 12 14 | 51.1
2'F-ANA at 4 9 11 12 14 15 | 90.4
2'F-ANA at 4 5 6 8 9 15 | 74.3
2'F-ANA at 3 7 8 9 11 15 | 1010
2'F-ANA at 2 3 4 5 6 7 8 10 13 14 15 | 46.5
2'F-ANA at 2 3 10 12 13 15 | 403

Some of these lines once more (sample 2):
Strand | bound/input enrichment [ratio]
CAGCCAGGGAUUUUUGGGUUUUUUGUUUUGGGUUGAGUCUGGGUGUUAUUUUUGUUUGUUUCCGGCAUAUAAUUCCCGAUGUAAUUUGAUUUAAAAGUAUAACUGACUUGCUUUUAAAUC | 0.37
UAUAUUUUGGAUUCUGUUUGUGUUGAAUUUUUUAAUCAUUGUGCACAGAAGCAUCAUUGGCCGCUUUUAUAUGCAAAUGGUCAUUUCAGAUGUAUGGUGUUUUUACACUACAAAGAAGUC | 0.126
GAAAGGGACGGUGGGACCAGUUACUCUCCACAAGAAAACUCACACAACCACAGUGCACUUCACCGUUCAAAUUCACAUUCUUCUAAUCCAAGCAAUAAUCCAAGCAAAACUUCAGAUGCA | 0.268
CUGCGCUCGCUGGCCUUCAGGAAGGAGUUCCAGGACGCUAGCCUCCGCAGUAGCACCUUCCGCUCCUUUGACAAUGACAUAGAGAACCACCUCAUCGGUGGGCACAAUGUGGUUCAGCCC | 0.154
GAUUGAUCUCUGGGCUGGUGAACAUAAUCUCUGUCCCAGUCAGAAAAGGAGAGAGGAAAUCCGCAGAGCGAUUGGUGGAGAAUGAUAUCUGUCAAAAGAAACACUUGGAGAGCACUGAGU | 0.235
UUAGCUUAUGGCAACCAAGAAAGCAAGCUCAUCAUACUGGCUAGUGGUGGACCCCAAGCUUCCGUAAAUAUAAUGAGGACCUAUACUUACGAAAAACUACUGUGGACCACAAGCAGAGUG | 0.258
CCUCUACCAGAUGACUAUAAUUGCAACGUAGAGCUUGCUCUGACUUCUGAUGGCAGGACAACCGUAUGCUACCACCCUUCUGUGGACAUUCCAUAUGAACACACAAAACCUAUCCCUCGG | 0.167
CAAGAUAAAUUUCAGACCAUGUCUGACCAGAUCAUUGGGAGAAUUGAUGAUAUGAGCCGUCGCAUUGAUGAUCUGGAAAAGAAUAUCGCGGACCUCAUGACACAGGCUGGGGUGGAAGAA | 0.464
